Experimental data collected from several papers.
Each line is one published result; not all experiments were run side by side. “And” joins repeats or separate records; there may be more than shown. ± marks the error that the study gave.
FFAR4: Free fatty acid receptor 4 (FFAR4, Homo sapiens, UniProt Q5NUL3)
GAP50: Glideosome-associated protein 50 (GAP50, Plasmodium falciparum, UniProt Q8I2X3)
NADH dehydrogenase [ubiquinone] iron-sulfur protein 7, mitochondrial/NADH dehydrogenase [ubiquinone] iron-sulfur protein 2, mitochondrial/MT-ND1: NADH dehydrogenase [ubiquinone] iron-sulfur protein 7, mitochondrial/NADH dehydrogenase [ubiquinone] iron-sulfur protein 2, mitochondrial/MT-ND1 (Homo sapiens, UniProt O75251+O75306+P03886)
TRPM8: Transient receptor potential cation channel subfamily M member 8 (TRPM8, Homo sapiens, UniProt Q7Z2W7)
Maoa: Amine oxidase [flavin-containing] A (Maoa, Rattus norvegicus, UniProt P21396)

O=C(COP(=O)(O)O)[C@@H](O)[C@H](O)[C@H](O)COP(=O)(O)O: “thermal stability ratio” 0.496 (Eukaryotic translation initiation factor 3 subunit H (Homo sapiens, UniProt O15372); thermal proteome profiling, measured: EIF3H; HepG2 cell lysate; concentration not given, 57 over 37 °C, mean; relative to: compound over control).
CCNC(=O)/C=C/c1cccc(Br)c1: “remaining transport activity” 1.06 (Sodium-dependent neutral amino acid transporter B(0)AT1 (SLC6A19, Homo sapiens, UniProt Q695T7); inhibitor, FLIPR membrane potential; CHO-BC cells; 0.001 µM, unit not given; relative to: no inhibitor).
O=C1Nc2c(ccc(Cl)c2Cl)C1=NO has a Hill coefficient of 1.4 (KCNN4/CALM1 (Homo sapiens, UniProt O15554+P0DP23, L185A); activator, whole-cell patch clamp; HEK293 (L185A mutant)).
CCCCCCCCNc1[nH]c(=O)[nH]c(=O)c1Br has an inhibition of 14 ± 3% (FFAR4; antagonist, β-arrestin recruitment; CHO cells; 10 µM).
The Km of Nc1ncnc2c1ncn2[C@@H]1O[C@H](COP(=O)(O)OP(=O)(O)OP(=O)(O)O)[C@@H](O)[C@H]1O is reported as 1700 ± 100 µM (Hexokinase-3 (HK3, Homo sapiens, UniProt P52790, N221A); substrate; mutant N221A, added: glucose 0.5 mM).
CCCCC(CC)CNc1cc(=O)[nH]c(=O)[nH]1 (racemic) gave an agonist effect of -1% (FFAR4; β-arrestin recruitment; CHO; 10 µM; relative to: 30 µM TUG-891).
Under “normalised MST signal”, O=S(=O)(O)C1CCNCC1 is recorded as 0.00334 (Sodium- and chloride-dependent taurine transporter (SLC6A6, Homo sapiens, UniProt P31641, G62A); binding, microscale thermophoresis; 1.95 µM, room temperature, added: 50 nM labelled protein; higher = more binding).
For O=C(Nc1ccccc1-c1nc2c(C(=O)O)cccc2o1)c1ccccc1, the koff was 0.00182 s⁻¹ (GAP50; binding, surface plasmon resonance; 1:1 binding model).
N[C@@H](Cc1ccccc1)C(=O)O has a cAMP level of 23.7 pmol/mg protein and 16.8 pmol/mg protein and 20.6 pmol/mg protein and 21.1 pmol/mg protein and 18.3 pmol/mg protein and 18.5 pmol/mg protein (Beta-1 adrenergic receptor (ADRB1, Homo sapiens, UniProt P08588); HEK293 expressing β1AR; 10 µM).
c1coc(-c2n[nH]cc2-c2ccnc3ccccc23)c1: “log2 fold change” -0.13 (Serine/threonine-protein kinase PKH2 (Candida albicans, UniProt Q5A3P6); kinase binding, MIB/MS competition; Candida albicans lysate; 10 µM; relative to: DMSO, negative = stronger binding).
CCc1cc(NC(=O)COc2cc(Cl)ccc2Cl)n(C2CCOCC2)n1 has an Emax of 85% (Kir3.1/Kir3.2 (Homo sapiens, UniProt P48051+P48549); thallium flux, activator; HEK293; relative to: standard compound).
Under “binding free energy”, O=C1O/C(=C\c2cc(F)ccc2OCCN2CCOCC2)c2cc(Cc3cccc(F)c3)[nH]c(=O)c21 is recorded as -11.1 kcal/mol (Dual specificity calcium/calmodulin-dependent 3',5'-cyclic nucleotide phosphodiesterase 1C, isoform PDE1C2 (PDE1C, Homo sapiens, UniProt Q14123); enzyme activity, inhibitor; added: 3H-cGMP substrate).
CCC(N)C(=O)O (racemic) has a thermal shift of 2.52 °C (uncharacterized protein (Pelagibacter ubique, UniProt Q4FKZ8); differential scanning fluorimetry; Candidatus Pelagibacter ubique; in-house screen).
The agonist effect of O=c1cc(NCCc2cccs2)[nH]c(=O)[nH]1 is reported as 1 ± 1% (FFAR4; agonist, β-arrestin recruitment; CHO cells; 10 µM; relative to: 30 µM TUG-891).
Nc1nc2c(F)c(F)c(F)cc2[nH]1 gave a Hill coefficient of 1.09 ± 0.08 (Voltage-gated hydrogen channel 1 (HVCN1, Homo sapiens, UniProt Q96D96); proton current, inhibitor, inside-out patch clamp; Xenopus oocytes; dimeric channel).
NC(=O)NOCCCCCCCCCCCCCCCC[P+](c1ccccc1)(c1ccccc1)c1ccccc1.O=C([O-])C(F)(F)F: “oxygen consumption rate” 45.4 ± 1.48% (NADH dehydrogenase [ubiquinone] iron-sulfur protein 7, mitochondrial/NADH dehydrogenase [ubiquinone] iron-sulfur protein 2, mitochondrial/MT-ND1; complex I-dependent respiration, Seahorse XF96; HCT-116; 0.8 µM, 24 h; relative to: control).
For N[C@@H](CS)C(=O)O, the Ki was 352 µM (Cysteine--tRNA ligase, cytoplasmic (Homo sapiens, UniProt P49589); enzyme activity, inhibitor, aminoacylation LC-MS/MS; pH 7.6, 37 °C, Mg2+ 15.6 mM, added: ATP 1 mM, yeast tRNA).
CN(CCCCCCNC(=O)COc1ccc(C2CCC(=O)NC2=O)cc1)Cc1cn(Cc2ccc(C(=O)NO)cc2)c2ccccc12.O=C(O)C(F)(F)F (stereo not drawn) gave a degradation of 56% (Polyamine deacetylase HDAC10 (HDAC10, Homo sapiens, UniProt Q969S8); degrader, western blot; MM1.S; 5 µM, 24 h).
For CCCCCCCNc1[nH]c(=O)[nH]c(=O)c1N=O, the activation was 0% (FFAR4; agonist, β-arrestin recruitment; CHO cells; 10 µM).
The remaining activity of Cn1c2ccccc2c2c3c(c4c5ccccc5n(CCC#N)c4c21)CNC3=O is reported as 96.1 ± 9.47% (TRPM8; antagonist; HEK293; 5 µM; relative to: control).
With Cc1ccccc1C(=O)N1NC(=Nc2ccccc2)SC1(C)C the kon was 3270 M⁻¹ s⁻¹ (GAP50; binding, surface plasmon resonance; 1:1 binding model).
O=c1cc(NCCc2ccccc2)[nH]c(=O)[nH]1 gave an activation of 2 ± 1% (FFAR4; agonist, β-arrestin recruitment; CHO cells; 10 µM).
With NS(=O)(=O)c1ccc(Nc2nc(-c3ccc(F)cc3F)cs2)cc1 the Hill slope was 1.4 (3-oxoacyl-[acyl-carrier-protein] reductase FabG (fabG, Pseudomonas aeruginosa, UniProt O54438); enzyme activity, inhibitor, NADPH fluorescence; reverse reaction, added: 3-OH-decanoyl-NAC, NADP).
For CC[C@@H]1[C@H](F)C(=O)N[C@@H]1COc1nccc2cc(C(N)=O)c(OC)cc12, the inhibition was 5% (Mitogen-activated protein kinase kinase kinase 11 (MAP3K11, Homo sapiens, UniProt Q16584); ATP-site probe binding, ActivX profiling, measured: MLK3; THP-1 cell lysate; 0.2 mM, Lys1 site).
Cc1nc(-c2ccccc2)c(-c2ccncc2)o1 gave a remaining activity of 100 ± 5.78% (TRPM8; antagonist; HEK293; 5 µM; relative to: control).
N[C@](CCCCB(O)O)(CCN1CCCCC1)C(=O)O has a binding stoichiometry of 0.908 ± 0.003 (Arginase (Schistosoma mansoni, UniProt Q6WVP6); isothermal titration calorimetry; concentration not given).
O=c1cc(NCCc2ccccc2F)[nH]c(=O)[nH]1 has an activation of 1% (FFAR4; agonist, β-arrestin recruitment; CHO cells; 10 µM).
For NCc1ccc(F)cc1, the kcat was 0.233 ± 0.00667 s⁻¹ (Maoa; substrate; pH 7.5, 25 °C, α,α-protio substrate).
For CN1CCN(C(=O)c2ccc3cc(CCNc4ccnc5ccc(C#N)cc45)ccc3c2)CC1, “residence time ratio” read 2 to 3 fold (Cyclin-dependent kinase 19, with cyclin C (CDK19, Homo sapiens, UniProt Q9BWU1); TR-FRET kinetics; relative to: compound over Senexin B).
With O=c1cc(NCCc2ccc(F)cc2)[nH]c(=O)[nH]1 the activation was 2 ± 1% (FFAR4; agonist, β-arrestin recruitment; CHO cells; 10 µM).
CC[C@@H](C)[C@@H](NC(=O)[C@@H](Cc1ccc(O)cc1)NC(=O)[C@H]1CCCN1C(=O)[C@@H](CCCNC(=N)N)NC(=O)[C@H](N)Cc1c[nH]cn1)C(=O)N[C@H](C)C(=O)N[C@H](Cc1c[nH]cn1)C(=O)N[C@H](CCCNC(=N)N)C(=O)N[C@@H](C(=O)N[C@H](Cc1ccc(O)cc1)C(=O)N[C@H](CO)C(=O)N[C@H](Cc1ccccc1)C(N)=O)C(C)C — result for “surface TFRC expression”: 0.955 (Transferrin receptor protein 1 (Tfrc, Mus musculus, UniProt Q62351); flow cytometry; RAW264.7; 6 h, pH 7.4, unit not given; relative to: 0 h).
NC(=O)NO: “oxygen consumption rate” 83.1 ± 5.77% (NADH dehydrogenase [ubiquinone] iron-sulfur protein 7, mitochondrial/NADH dehydrogenase [ubiquinone] iron-sulfur protein 2, mitochondrial/MT-ND1; complex I-dependent respiration, Seahorse XF96; HCT-116; 3000 µM, 24 h; relative to: control).
The remaining activity of Nc1ccc2ncnc(NCCc3ccc(Oc4ccccc4)cc3)c2c1 is reported as 74.5 ± 11.3% (TRPM8; antagonist; HEK293; 5 µM; relative to: control).
Under “oxygen consumption rate”, NC(=O)NOCCCCCCCCCC[P+](c1ccccc1)(c1ccccc1)c1ccccc1.O=C([O-])C(F)(F)F is recorded as 3.14 ± 3.67% (NADH dehydrogenase [ubiquinone] iron-sulfur protein 7, mitochondrial/NADH dehydrogenase [ubiquinone] iron-sulfur protein 2, mitochondrial/MT-ND1; complex I-dependent respiration, Seahorse XF96; HCT-116; 40 µM, 24 h; relative to: control).
N=C1NC(=O)C2(CCc3ccc(Br)cc32)C(=O)N1 (stereo not drawn) gave an Emax of 3% (GABA-A receptor; alpha-1/beta-3/gamma-2 (Homo sapiens, UniProt P14867+P18507+P28472); 300 µM).
Under “mutual destabilization factor ξ”, Nc1ncnc2c1ncn2[C@@H]1O[C@H](COP(=O)(O)OP(=O)(O)OP(=O)(O)O)[C@@H](O)[C@H]1O is recorded as 47 (rat Ca2+-activated nonselective cation channel; four-subunit kinetic model).
With Cc1n[nH]c(CC(=O)N2Cc3c(-c4ccc(C(=O)N5CCCc6ccccc65)cc4)cnn3C[C@H]2C)n1 the Tm was 54 °C (E3 ubiquitin-protein ligase parkin (PRKN, Human, UniProt O60260); nanoDSF; 200 µM, 2 µM parkin).
For Cl.Cl.NNCCc1ccc(NC(=O)CCCc2ccccc2)cc1, the kinact was 0.3 ± 0.11 min⁻¹ (Amine oxidase [flavin-containing] A (MAOA, Homo sapiens, UniProt P21397)).
The pKa1 of NCc1ccc(C(F)(F)F)cc1 is reported as 7.8 ± 0.1 (Maoa; kcat/Km ascending limb free E S, substrate; pH 6.5-9.5).
For Cc1ccc(Oc2ccc(NC(=O)CNc3ccccc3N3CCCC3=O)cc2)cc1, the kon was 164000 M⁻¹ s⁻¹ (GAP50; binding, surface plasmon resonance; 1:1 binding model).
For Cc1ccc(CCNc2cc(=O)[nH]c(=O)[nH]2)cc1, the activation was 1 ± 1% (FFAR4; agonist, β-arrestin recruitment; CHO cells; 10 µM).
With CCCCCCCCC(=O)c1cc(O)c(O)c(O)c1 the activation was 1.1 fold (Nuclear receptor subfamily 4 group A member 2, LBD; with RXRα (Homo sapiens, UniProt P43354); reporter gene, full-length heterodimer DR5 reporter; 10 µM; relative to: vehicle).
